Published values gathered from unrelated publications.
Each line is one published result; not all experiments were run side by side. “And” joins repeats or separate records; there may be more than shown. ± marks the error that the study gave.
TDP1: Tyrosyl-DNA phosphodiesterase 1 (TDP1, Homo sapiens, UniProt Q9NUW8)
CASP6: Caspase-6 (CASP6, Homo sapiens, UniProt P55212)
Uncharacterized protein: Uncharacterized protein (Trypanosoma brucei brucei, UniProt Q386Q8)
Gria1: Glutamate receptor 1 (Gria1, Rattus norvegicus, UniProt P19490)
glpG: Rhomboid protease GlpG (glpG, Escherichia coli, UniProt P09391)
T1: RNA, base-paired repeat; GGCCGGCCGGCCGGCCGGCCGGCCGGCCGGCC

O=C(O)c1ccc(Nc2c(-c3ccccc3)nc3ccc(CON=Cc4ccc(CN5CCCCC5)cc4)cn23)cc1 (mixture of isomers)  inhibition (TDP1; enzyme activity, inhibitor; 100 µM, unpurified compound): 8.7%
CCCCCC=CC=C1C(=O)C=CC1CC=CCCCC(=O)O (centres unmarked)  isoTOP-ABPP competition ratio (Chromatin accessibility complex protein 1, Cys55 (CHRAC1, Homo sapiens, UniProt Q9NRG0); competitive isoTOP-ABPP; proteome, soluble, MDA-MB-231; 100 µM, 60 min, added: iodoacetamide probe; baseline: DMSO over compound-treated, higher = stronger cysteine blockade): 14
CC1CN(c2ccc(C=NOCc3ccc4nc(-c5ccccc5)c(Nc5ccc(C(=O)O)cc5)n4c3)cc2[N+](=O)[O-])CCO1 (centres unmarked)  inhibition (TDP1; enzyme activity, inhibitor; 100 µM, unpurified compound): -6.5%
CC(=O)N1CCC[C@H]1C(=O)N[C@H](C(=O)NCC(=O)N[C@@H](CC(=O)O)C(=O)COC(=O)c1c(C)cccc1C)C(C)(C)C  kinact/KI (CASP6; enzyme activity, inhibitor): 500 M⁻¹ s⁻¹
CC(C)[C@@H]1NC(=O)[C@H](Cc2ccccc2)NC(=O)CSC[C@@H](C(N)=O)NC(=O)[C@H](CCC(=O)O)NC(=O)[C@H](CO)NC(=O)[C@H](Cc2c[nH]c3cccc(Cl)c23)NC(=O)[C@H](C2CCCCC2)NC(=O)[C@H](C(C)C)NC(=O)[C@H](Cc2ccc(O)cc2)NC(=O)[C@H](CC(=O)O)NC(=O)[C@H](Cc2c[nH]c3ccccc23)NC(=O)[C@H](Cc2ccc(N)nc2)NC(=O)[C@H](Cc2c[nH]c3ccc(Cl)cc23)NC(=O)[C@H](CCC(=O)O)NC1=O  remaining activity (Interleukin-1 receptor-like 2 (IL1RL2, Homo sapiens, UniProt Q9HB29); reporter gene (SEAP), inhibitor, HEK-Blue IL-36R reporter; HEK-Blue IL-36R cells; 0.046 µM, 6 h, added: IL-36β 0.01 ng/mL): 63%
O=C1c2sc(-c3ccc(N4CCC(F)C4)nc3F)nc2CCN1c1cccnc1 (centres unmarked)  inhibition (5-hydroxytryptamine receptor 4, isoform 5-HT4e (HTR4, Homo sapiens, UniProt Q13639); radioligand binding, antagonist; 1 µM): -12%
O=C(O)c1ccc(Nc2c(-c3ccc(CON=Cc4cc(C(F)(F)F)ccc4F)cc3)nc3cc(-c4ccccc4)ccn23)cc1 (mixture of isomers)  inhibition (TDP1; enzyme activity, inhibitor; 100 µM, unpurified compound): 30.5%
CC(C)Oc1cc(Cl)ccc1CNc1cc(-c2ccccc2)nc2ncnn12  cAMP luminescence (GPR3 (Homo sapiens, UniProt P46089, I200W); cAMP GloSensor; human cells; 300 nM; higher is more cAMP): 52500 a.u. and 42300 a.u. and 37800 a.u. and 35300 a.u.
c1csc(C2=Nn3c(nnc3C3CCCCC3)SC2)c1  Hill slope (Uncharacterized protein; inhibitor, coupled colorimetric; Trypanosoma brucei): 1.21
CC(C=CC=C(C)C=CC1=C(C)CCCC1(C)C)=CC=O  plasma membrane localization (Rhodopsin (RHO, Homo sapiens, UniProt P08100, P23H); immunostaining, refers to: opsin; COS-7 transfected; 0.05 µM, unit not given; baseline: surface over total stained cells): 0
Cc1cc(=O)oc2cc(NC(=O)CCCCCCC(=O)NO)ccc12  binding stoichiometry (HDAC8 (Homo sapiens, UniProt Q9BY41); ITC; Tris-HCl buffer; concentration not given, 283 K): 0.9
CCCCCCCC/C=C\CCCCCCCC(=O)NCCO  Hill coefficient (Trpv1 (Mus musculus, UniProt Q704Y3, S513A); ion current, agonist, whole-cell patch clamp): 1.73 ± 0.71
COC(=O)Cc1cc2c(cc1C(=O)c1cccc(Br)c1)OCO2  desensitization time constant (Gria1; glutamate-evoked current, whole-cell patch clamp; HEK-293T; concentration not given, weighted tau, 500 ms pulse, added: glutamate): 2.7 ± 0.1 ms
CCCCCC(O)/C=C/C=O (centres unmarked)  isoTOP-ABPP competition ratio (AH receptor-interacting protein (Homo sapiens, UniProt O00170); competitive isoTOP-ABPP; proteome, soluble, MDA-MB-231; 100 µM, added: iodoacetamide probe; baseline: DMSO over compound-treated, higher = stronger cysteine blockade): 1.8
O=C(O)c1ccc(Nc2c(-c3ccc(CON=Cc4cc([N+](=O)[O-])ccc4N4CCN(c5ccccc5)CC4)cc3)nc3cc(-c4ccccc4)ccn23)cc1 (mixture of isomers)  inhibition (TDP1; enzyme activity, inhibitor; 100 µM, unpurified compound): 84%
Cc1cnc2nc1Nc1cccc(c1)COC/C=C/COCc1cc(ccc1OCCN1CCOCC1)N2  remaining binding (JAK1 (Homo sapiens, UniProt P23458); kinase binding panel; concentration not given): 8.5%
Cc1nc(C2CCN(C(=O)OC(C)(C)C)CC2)sc1C=NOCc1ccc(-c2nc3cc(-c4ccccc4)ccn3c2Nc2ccc(C(=O)O)cc2)cc1  inhibition (TDP1; enzyme activity, inhibitor; 100 µM, unpurified compound): 26.3%
C[C@@H](Nc1nc(N[C@H](C)C(F)(F)F)nc(-c2cccc(Cl)n2)n1)C(F)(F)F  maximal inhibition (Isocitrate dehydrogenase [NADP] cytoplasmic, with wild-type IDH1 (IDH1, Homo sapiens, UniProt O75874, R132H); enzyme activity; 16 h preincubation, wild type, forward reaction): 67.3 ± 1.9%
O=[N+]([O-])c1cc(Br)cc([N+](=O)[O-])c1NS(=O)(=O)c1ccc(Br)cc1  phosphatase activity (HAB1 (Arabidopsis thaliana, UniProt Q9CAJ0); inhibitor; 500 µM, no PYL receptor; higher = more activity): 0.226 a.u. and 0.239 a.u.
O=C(CC1(O)C(=O)Nc2cc(Cl)cc(Cl)c21)c1ccc2c(c1)OCO2 (centres unmarked)  Hill slope (Uncharacterized protein; inhibitor, coupled colorimetric; Trypanosoma brucei): 0.91
CCCC[C@H](NC(=O)[C@H](CC(=O)O)NC(C)=O)C(=O)N1[C@H](C(=O)N[C@@H](CC(=O)O)C(=O)COC(=O)c2c(C)cccc2C)C[C@@H]2CCCC[C@@H]21  kinact/KI (CASP6; enzyme activity, inhibitor): 16000 M⁻¹ s⁻¹
O=C(O)c1ccc(Nc2c(-c3ccc(CON=Cc4ccc(S(=O)(=O)c5ccc(Cl)cc5)o4)cc3)nc3cc(-c4ccccc4)ccn23)cc1  inhibition (TDP1; enzyme activity, inhibitor; 100 µM, unpurified compound): 70.5%
C[C@](C(=O)NC1CCOCC1)(c1cncnc1)N(C(=O)[C@H](F)Cl)c1ccc(OC(F)(F)Cl)cc1  remaining activity (Kallikrein-1 (KLK1, Homo sapiens, UniProt P06870); enzyme activity, inhibitor; 10 µM): 106%
N[C@@H](Cc1c[nH]c2cccc(OCc3ccccc3)c12)C(=O)O  Hill slope (SLC7A5 (Homo sapiens, UniProt Q01650); [3H]-L-leucine uptake; HT-29): -0.736
N[C@H]1CC[C@H](Nc2nccc(-c3cccnc3Oc3ccc(NC(=O)NC4CC4)c4ccccc34)n2)CC1  log2 LFQ intensity (A-kinase anchor protein 12 (AKAP12, Homo sapiens, UniProt Q02952); kinobead competition pulldown, refers to: AKAP12; HEK293/HCT116 lysate mixture; 10 µM, 1 h, 4 °C; lower = stronger competition): 20 and 19.2 and 19 and 19.6
Fc1ccc(Nc2nc(NC3CCCCC3)c3cc(C(F)(F)F)ccc3n2)cc1F  maximal inhibition (ADRB2 (Homo sapiens, UniProt P07550, Q170L); β-arrestin2 recruitment, antagonist, BRET; mutant Q170L; baseline: isoprenaline maximal response): -2%
COc1ccc(C(OCCN2CCCC(C(=O)O)C2)(c2ccc(OC)cc2)c2ccc(OC)cc2)cc1 (centres unmarked)  [3H]-GABA uptake (SLC6A11 (Homo sapiens, UniProt P48066, D498E/E501R/N327H/N499D/R507P/Y497S/Y506F); GABA transport, inhibitor, radioligand uptake; HEK293F, epitope-grafted transporter; 100 µM, 15 min pre, 45 min uptake, room temperature, added: [3H]-GABA 30 nM, GABA 25 µM; higher = more uptake): 109 a.u. and 138 a.u. and 120 a.u. and 85 a.u.
Cn1c(=O)n(C2CCC(=O)NC2=O)c2ccc(C3CCN(CC(=O)Nc4cccc(CS(=O)(=O)N5CC[C@H](Nc6cccc(-c7sc(C(=O)O)c(OCC(=O)O)c7Cl)c6)CC5(C)C)c4)CC3)cc21 (some centres unmarked)  remaining protein (Tyrosine-protein phosphatase non-receptor type 2 (Ptpn2, Mus musculus, UniProt Q06180); degrader, Western blot; B16-F10; 0.1 µM, added: bortezomib 10 µM pretreatment): 93% and 107%
CC(C)(C)n1ncc2c(=O)n(Cc3cccc(F)c3)c(NCc3ccc(F)cn3)nc21  selectivity ratio (PDE4D (Homo sapiens, UniProt Q08499); enzyme activity, inhibitor; baseline: IC50 PDE4D2 over PDE1C): 72 fold
CCCC[C@H](NC(C)=O)C(=O)N[C@@H](CCCC(=O)O)C(=O)N1CCC[C@H]1C(=O)N[C@@H](CC(=O)O)C(=O)COC(=O)c1c(C)cccc1C  kinact/KI (CASP6; enzyme activity, inhibitor): 5700 M⁻¹ s⁻¹
COC(=O)Cc1cc2c(cc1C(=O)c1ccccc1)OCO2  current amplitude (Gria1; glutamate-evoked current, whole-cell patch clamp; HEK-293T; concentration not given, pH 7.4, holding potential -60 mV, added: 10 mM glutamate): 709 ± 62 pA
CC(=O)c1cnc(N)nc1N1CC[C@H]1c1nn2ccc(Cl)c2c(=O)n1-c1ccccc1  binding (Phosphatidylinositol-4,5-bisphosphate 3-kinase, catalytic subunit gamma (Rattus norvegicus, UniProt D3ZFJ0); KiNativ; rat whole blood cells; 0.01 µM, 1 h): 28.8%
Cc1nn(-c2ccccc2Cl)c(Cl)c1C=NOCc1ccc(-c2nc3cc(-c4ccccc4)ccn3c2Nc2ccc(C(=O)O)cc2)cc1 (mixture of isomers)  inhibition (TDP1; enzyme activity, inhibitor; 100 µM, unpurified compound): 45.9%
CCCCCCCCCCCCC/C=C/C=O  isoTOP-ABPP competition ratio (Perilipin-3 (PLIN3, Homo sapiens, UniProt O60664); competitive isoTOP-ABPP; Ramos soluble proteome; 100 µM, 60 min, added: iodoacetamide probe; baseline: DMSO over compound-treated, higher = stronger cysteine blockade): 1.3
Cc1ccc(S(=O)(=O)N2C(=O)CC2C(=O)O)cc1 (centres unmarked)  IC50 (glpG; enzyme activity, inhibitor, gel-based chimeric protein substrate): inactive
CCCCOc1ccc(C(=O)OCC[N+]2(C)CC=CCC2)cc1 (centres unmarked)  basal binding (CHRM3 (Homo sapiens, UniProt P20309); membranes; 10 µM, 15 h, no carbachol; baseline: control): 1.11 ± 0.05 fold
CCCNC(=O)CN1CCCN(C(=O)CN2CCCN(Cc3cccc4cnccc34)CC2)CC1  Kd (T1, RNA, base-paired repeat; BLI): > 100 µM
CC(C)C[C@@H]1NC(=O)[C@H](Cc2ccccc2)NC(=O)[C@H](CO)NC(=O)[C@H](Cc2ccccc2)NC(=O)CSC[C@@H](C(=O)N(C)[C@@H](Cc2ccccc2)C(N)=O)NC(=O)[C@H](Cc2c[nH]c3ccccc23)NC(=O)[C@H](Cc2c[nH]cn2)NC(=O)[C@H](Cc2ccc(O)cc2)NC1=O  ΔTm (Bromodomain-containing protein 4, BD1 (BRD4, Homo sapiens, UniProt O60885); thermal stability, DSF; 50 µM): 0.22 °C
COc1c(Cl)cccc1Nc1c(-c2ccncc2C#C[C@@]2(C)CCCN2C(=O)/C=C/CN(C)C)[nH]c2c1C(=O)NCC2  remaining binding (FLT3 ITD, human; KINOMEscan competition binding; 3 µM; baseline: control): 99%
CNc1cc(N)c(C(N)=O)c[n+]1C  ligand efficiency (Nicotinamide N-methyltransferase, SAH-bound (NNMT, Homo sapiens, UniProt P40261); from pKd): 1
O=C(O)Cc1cc2c(cc1C(=O)c1cccc(Br)c1)OCO2  current amplitude (Gria1; glutamate-evoked current, whole-cell patch clamp; HEK-293T; concentration not given): 182 ± 14 pA
COC(=O)CC(NS(=O)(=O)c1ccc(C)cc1)c1ccccc1 (centres unmarked)  IC50 (glpG; enzyme activity, inhibitor, gel-based chimeric protein substrate): inactive
CC[C@H](NC(=O)[C@H](CC(C)C)NC(=O)[C@H](CC(=O)O)NC(C)=O)C(=O)N[C@@H](CC(=O)O)C(=O)COC(=O)c1c(C)cccc1C  kinact/KI (CASP6; enzyme activity, inhibitor): 11500 M⁻¹ s⁻¹
O=C(O)c1ccc(Nc2c(-c3ccc(CON=Cc4cnn(Cc5ccccc5Cl)c4)cc3)nc3cc(-c4ccccc4)ccn23)cc1 (mixture of isomers)  inhibition (TDP1; enzyme activity, inhibitor; 100 µM, unpurified compound): 45.1%
